# Measurements collected from several papers.
# Every numbered part comes from another study and shows a few of its results, in no order.
# Sequence of UniProt P23443 (whole entry, looked up): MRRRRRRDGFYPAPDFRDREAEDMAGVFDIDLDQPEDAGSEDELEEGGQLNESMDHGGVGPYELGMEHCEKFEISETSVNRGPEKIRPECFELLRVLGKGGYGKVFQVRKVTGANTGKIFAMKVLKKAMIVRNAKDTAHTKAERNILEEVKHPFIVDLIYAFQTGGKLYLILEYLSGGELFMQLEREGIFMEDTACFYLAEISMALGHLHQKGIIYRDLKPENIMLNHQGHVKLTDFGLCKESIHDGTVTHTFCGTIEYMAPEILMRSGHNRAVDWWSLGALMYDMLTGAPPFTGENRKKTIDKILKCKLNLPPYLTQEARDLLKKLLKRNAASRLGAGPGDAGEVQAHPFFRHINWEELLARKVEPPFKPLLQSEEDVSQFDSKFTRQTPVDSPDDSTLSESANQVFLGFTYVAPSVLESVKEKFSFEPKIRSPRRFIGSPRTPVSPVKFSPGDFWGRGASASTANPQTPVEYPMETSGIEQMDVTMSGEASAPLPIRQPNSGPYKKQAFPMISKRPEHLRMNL
# Sequence of UniProt P80192 (whole entry, looked up): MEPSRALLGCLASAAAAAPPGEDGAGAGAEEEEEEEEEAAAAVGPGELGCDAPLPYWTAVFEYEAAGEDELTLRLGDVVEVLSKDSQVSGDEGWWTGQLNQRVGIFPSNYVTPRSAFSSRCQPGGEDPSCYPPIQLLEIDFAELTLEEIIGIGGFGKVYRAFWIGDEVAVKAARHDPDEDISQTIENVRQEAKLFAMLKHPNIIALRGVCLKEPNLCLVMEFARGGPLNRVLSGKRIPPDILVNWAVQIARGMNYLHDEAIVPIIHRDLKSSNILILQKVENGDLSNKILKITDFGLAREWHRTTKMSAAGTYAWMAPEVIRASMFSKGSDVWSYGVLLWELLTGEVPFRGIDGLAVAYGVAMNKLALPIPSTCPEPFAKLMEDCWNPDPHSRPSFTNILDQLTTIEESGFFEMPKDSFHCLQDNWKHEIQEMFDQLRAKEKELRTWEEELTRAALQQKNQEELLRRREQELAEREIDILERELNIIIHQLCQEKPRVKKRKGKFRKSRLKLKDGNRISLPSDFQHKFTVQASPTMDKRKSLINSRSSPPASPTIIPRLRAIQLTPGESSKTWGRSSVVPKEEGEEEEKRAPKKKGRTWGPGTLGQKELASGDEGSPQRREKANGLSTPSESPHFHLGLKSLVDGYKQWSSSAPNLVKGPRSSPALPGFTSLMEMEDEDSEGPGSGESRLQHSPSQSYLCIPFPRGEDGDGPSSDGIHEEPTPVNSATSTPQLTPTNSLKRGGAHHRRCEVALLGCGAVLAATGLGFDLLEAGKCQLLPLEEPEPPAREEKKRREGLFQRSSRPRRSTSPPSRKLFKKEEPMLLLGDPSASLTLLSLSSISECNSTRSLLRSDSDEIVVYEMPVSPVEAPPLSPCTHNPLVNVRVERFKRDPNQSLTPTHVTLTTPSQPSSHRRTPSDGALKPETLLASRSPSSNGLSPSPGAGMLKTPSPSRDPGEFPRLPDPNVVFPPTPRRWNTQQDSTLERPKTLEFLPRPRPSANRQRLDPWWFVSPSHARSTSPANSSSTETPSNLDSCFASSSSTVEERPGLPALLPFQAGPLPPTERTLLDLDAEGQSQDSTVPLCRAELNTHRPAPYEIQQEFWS
# Sequence of UniProt P10721 (whole entry, unmodified, looked up): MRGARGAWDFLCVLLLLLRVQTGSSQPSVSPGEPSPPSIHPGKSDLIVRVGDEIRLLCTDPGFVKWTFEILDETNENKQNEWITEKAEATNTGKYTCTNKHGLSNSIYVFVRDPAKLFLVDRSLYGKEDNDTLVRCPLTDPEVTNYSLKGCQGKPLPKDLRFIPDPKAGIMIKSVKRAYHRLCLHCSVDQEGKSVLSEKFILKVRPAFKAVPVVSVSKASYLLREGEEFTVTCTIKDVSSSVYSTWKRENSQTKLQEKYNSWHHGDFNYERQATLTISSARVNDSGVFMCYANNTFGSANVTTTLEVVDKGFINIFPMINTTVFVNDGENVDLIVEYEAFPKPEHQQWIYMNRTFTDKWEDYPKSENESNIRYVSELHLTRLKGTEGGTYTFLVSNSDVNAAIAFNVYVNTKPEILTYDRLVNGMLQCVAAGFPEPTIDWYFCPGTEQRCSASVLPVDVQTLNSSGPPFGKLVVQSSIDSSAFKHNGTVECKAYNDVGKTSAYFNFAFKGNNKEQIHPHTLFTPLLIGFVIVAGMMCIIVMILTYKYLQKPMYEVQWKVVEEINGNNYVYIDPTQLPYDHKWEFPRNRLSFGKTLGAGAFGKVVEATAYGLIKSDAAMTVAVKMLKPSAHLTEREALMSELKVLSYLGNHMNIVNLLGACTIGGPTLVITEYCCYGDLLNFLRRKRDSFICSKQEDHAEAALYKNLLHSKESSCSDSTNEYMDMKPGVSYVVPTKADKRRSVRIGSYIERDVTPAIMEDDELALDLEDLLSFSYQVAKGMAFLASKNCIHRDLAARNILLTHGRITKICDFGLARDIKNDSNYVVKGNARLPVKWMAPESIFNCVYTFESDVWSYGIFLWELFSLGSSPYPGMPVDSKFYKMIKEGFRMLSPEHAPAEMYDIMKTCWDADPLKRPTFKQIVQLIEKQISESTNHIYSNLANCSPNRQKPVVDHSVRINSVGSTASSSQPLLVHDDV
# Sequence of UniProt Q16832 (whole entry, looked up): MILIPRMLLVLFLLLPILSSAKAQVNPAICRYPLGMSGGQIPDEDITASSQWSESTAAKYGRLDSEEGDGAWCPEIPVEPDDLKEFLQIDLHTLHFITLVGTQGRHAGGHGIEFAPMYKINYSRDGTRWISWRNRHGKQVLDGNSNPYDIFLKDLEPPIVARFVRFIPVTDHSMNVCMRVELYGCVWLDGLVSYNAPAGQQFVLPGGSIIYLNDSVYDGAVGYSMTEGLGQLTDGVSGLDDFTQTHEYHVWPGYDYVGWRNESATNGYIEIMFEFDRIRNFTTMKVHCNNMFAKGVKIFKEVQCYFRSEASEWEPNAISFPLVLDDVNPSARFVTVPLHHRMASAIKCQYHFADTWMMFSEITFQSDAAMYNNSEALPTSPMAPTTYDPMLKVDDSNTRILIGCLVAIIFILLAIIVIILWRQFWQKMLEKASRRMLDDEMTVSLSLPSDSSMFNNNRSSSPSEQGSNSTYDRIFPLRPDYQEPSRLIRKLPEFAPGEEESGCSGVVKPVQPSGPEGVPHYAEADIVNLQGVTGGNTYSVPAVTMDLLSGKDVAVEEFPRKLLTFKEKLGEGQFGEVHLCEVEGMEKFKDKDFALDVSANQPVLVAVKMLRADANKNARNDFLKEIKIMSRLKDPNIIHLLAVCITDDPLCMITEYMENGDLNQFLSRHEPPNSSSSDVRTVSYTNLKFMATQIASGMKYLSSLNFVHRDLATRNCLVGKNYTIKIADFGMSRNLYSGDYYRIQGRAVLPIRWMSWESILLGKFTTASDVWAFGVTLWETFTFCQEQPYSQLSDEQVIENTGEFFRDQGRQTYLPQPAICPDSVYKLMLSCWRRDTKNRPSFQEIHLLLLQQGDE
# Sequence of UniProt P50613 (whole entry, looked up): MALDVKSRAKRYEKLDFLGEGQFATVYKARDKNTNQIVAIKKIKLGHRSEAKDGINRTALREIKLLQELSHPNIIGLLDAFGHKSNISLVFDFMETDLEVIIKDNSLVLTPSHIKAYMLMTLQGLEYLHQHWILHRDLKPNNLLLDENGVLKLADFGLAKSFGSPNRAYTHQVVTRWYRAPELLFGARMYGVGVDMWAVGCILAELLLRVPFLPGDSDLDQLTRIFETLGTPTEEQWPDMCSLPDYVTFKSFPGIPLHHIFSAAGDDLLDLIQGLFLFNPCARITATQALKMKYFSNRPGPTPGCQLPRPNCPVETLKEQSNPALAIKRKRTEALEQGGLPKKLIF
# Sequence of UniProt P53778 (whole entry, looked up): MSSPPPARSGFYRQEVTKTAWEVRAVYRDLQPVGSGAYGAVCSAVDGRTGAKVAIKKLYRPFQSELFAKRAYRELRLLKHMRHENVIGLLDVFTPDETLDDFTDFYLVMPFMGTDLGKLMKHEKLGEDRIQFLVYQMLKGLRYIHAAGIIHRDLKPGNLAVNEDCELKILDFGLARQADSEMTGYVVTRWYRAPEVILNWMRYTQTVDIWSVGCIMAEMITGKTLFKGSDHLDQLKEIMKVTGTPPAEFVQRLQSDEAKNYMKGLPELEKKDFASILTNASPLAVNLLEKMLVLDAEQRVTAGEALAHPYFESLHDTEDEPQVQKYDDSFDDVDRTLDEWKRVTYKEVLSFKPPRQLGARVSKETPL

# Block 1 — effect on: enzyme activity; mode: inhibitor; tested at: 1 µM
# Compound: CO[C@@H]1[C@H](N(C)C(=O)c2ccccc2)C[C@H]2O[C@]1(C)n1c3ccccc3c3c4c(c5c6ccccc6n2c5c31)C(=O)NC4
target,inhibition
"Serine/threonine-protein kinase TNNI3K (TNNI3K, Homo sapiens, UniProt Q59H18)",4%
"Misshapen-like kinase 1 (MINK1, Homo sapiens, UniProt Q8N4C8)",77%
"Tyrosine-protein kinase ZAP-70 (ZAP70, Homo sapiens, UniProt P43403)",81%
"TGF-beta receptor type-2 (TGFBR2, Homo sapiens, UniProt P37173)",0%
"Epidermal growth factor receptor (EGFR, Homo sapiens, UniProt P00533, G719S)",0%
"Serine/threonine-protein kinase Sgk1 (SGK1, Homo sapiens, UniProt O00141)",25%
"Mitogen-activated protein kinase 12 (MAPK12, Homo sapiens, UniProt P53778)",45%
"Ephrin type-A receptor 4 (EPHA4, Homo sapiens, UniProt P54764)",4%
"Protein kinase C eta type (PRKCH, Homo sapiens, UniProt P24723)",90%
"Wee1-like protein kinase (WEE1, Homo sapiens, UniProt P30291)",0%

# Block 2 — method: phase 2a trial; host: idiopathic pulmonary fibrosis patients
# Compound: CC(C)n1cnc(-c2ccc(F)cc2)c1-c1ncc(C(=O)Nc2ccc(N3CCN(C)CC3)cc2)[nH]1
conditions,supraventricular extrasystole patients [%]
"60 mg once daily, grade 5 emergent event",0
"all arms, grade 4 emergent event",0
"60 mg once daily, grade 1 emergent event",0
"all arms, grade 5 emergent event",0
"60 mg once daily, grade 4 emergent event",0
"60 mg once daily, grade 2 emergent event",0
"30 mg once daily, grade 3 emergent event",0
"30 mg once daily, grade 2 emergent event",0
"60 mg once daily, grade 3 emergent event",0

# Block 3 — effect on: cell-free assay; method: competition with immobilised ligand; tested at: 1 µM
# SMILES: CCCCN(CCCC)C(=O)CN1C[C@H](c2cc(OC)c3c(c2)OCO3)[C@@H](C(=O)O)[C@@H]1CC(C)(C)CCC
target,remaining binding
"Epidermal growth factor receptor (EGFR, Homo sapiens, UniProt P00533, T790M)",79%
"SNF-related serine/threonine-protein kinase (SNRK, Homo sapiens, UniProt Q9NRH2)",100%
"Mast/stem cell growth factor receptor Kit (KIT, Homo sapiens, UniProt P10721, V559D/V654A)",100%
"Tyrosine-protein kinase ABL1, non-phosphorylated (ABL1, Homo sapiens, UniProt P00519, T315I)",100%
"Ribosomal protein S6 kinase alpha-5, N-terminal kinase domain (RPS6KA5, Homo sapiens, UniProt O75582)",100%
"Cyclin-dependent kinase 7 (CDK7, Homo sapiens, UniProt P50613)",100%
"Serine/threonine-protein kinase 26 (STK26, Homo sapiens, UniProt Q9P289)",72.9%
"Serine/threonine-protein kinase ULK3 (ULK3, Homo sapiens, UniProt Q6PHR2)",86.7%
"Ribosomal protein S6 kinase beta-1 (RPS6KB1, Homo sapiens, UniProt P23443)",92.8%
"Protein-tyrosine kinase 6 (PTK6, Homo sapiens, UniProt Q13882)",100%
"Discoidin domain-containing receptor 2 (DDR2, Homo sapiens, UniProt Q16832)",76.6%
"Mitogen-activated protein kinase kinase kinase 2 (MAP3K2, Homo sapiens, UniProt Q9Y2U5)",81.2%
"Myosin light chain kinase (MYLK3, Homo sapiens, UniProt Q32MK0)",100%
"Receptor-type tyrosine-protein kinase FLT3 (FLT3, Homo sapiens, UniProt P36888, D835V)",57.4%
"Mitogen-activated protein kinase kinase kinase 9 (MAP3K9, Homo sapiens, UniProt P80192)",100%

# Block 4 — effect on: enzyme activity; mode: inhibitor; tested at: 0.5 µM; baseline: control
# Target: cGMP-dependent protein kinase 2 (PRKG2, Homo sapiens, UniProt Q13237)
# Sequence of UniProt Q13237 (whole entry, looked up): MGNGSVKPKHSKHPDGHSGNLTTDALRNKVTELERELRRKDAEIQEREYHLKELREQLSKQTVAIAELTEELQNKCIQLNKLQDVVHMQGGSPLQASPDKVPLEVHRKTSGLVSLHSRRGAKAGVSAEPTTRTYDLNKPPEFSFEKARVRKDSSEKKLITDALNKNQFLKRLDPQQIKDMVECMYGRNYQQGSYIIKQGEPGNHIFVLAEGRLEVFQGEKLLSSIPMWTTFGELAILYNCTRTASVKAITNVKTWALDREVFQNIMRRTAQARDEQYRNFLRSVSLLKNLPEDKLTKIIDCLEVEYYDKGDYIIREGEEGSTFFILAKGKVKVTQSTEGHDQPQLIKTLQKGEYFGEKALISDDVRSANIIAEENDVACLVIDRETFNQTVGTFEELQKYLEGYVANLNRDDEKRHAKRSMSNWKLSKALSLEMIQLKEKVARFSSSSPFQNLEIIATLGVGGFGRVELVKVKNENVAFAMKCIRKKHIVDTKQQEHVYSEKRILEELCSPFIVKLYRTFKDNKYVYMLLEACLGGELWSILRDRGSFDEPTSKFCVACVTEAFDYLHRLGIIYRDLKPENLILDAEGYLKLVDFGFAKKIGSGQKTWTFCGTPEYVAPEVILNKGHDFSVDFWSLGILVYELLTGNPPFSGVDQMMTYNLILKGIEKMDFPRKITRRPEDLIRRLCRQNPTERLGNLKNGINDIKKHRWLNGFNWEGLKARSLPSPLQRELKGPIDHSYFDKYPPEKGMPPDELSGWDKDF
SMILES,remaining activity [%]
O=C1c2ccccc2-c2n[nH]c3cccc1c23,93
Ic1cccc(CSc2nnc(-c3ccncc3)o2)c1,105
N#C/C(=C\c1ccc(O)c(O)c1)C(=O)NCc1ccccc1,98.6
CCN(CC)CCNC(=O)c1c(C)[nH]c(/C=C2\C(=O)Nc3ccc(Cl)cc32)c1C,82.6
Cc1nc2cc3nc(-c4cccs4)cnc3cc2n1C,87.7
c1ccc(-c2cnc(Nc3ccc(OCCN4CCCC4)cc3)s2)cc1,106
Nc1cccc(-c2cc3c(Oc4cccc(O)c4)ncnc3[nH]2)c1,108
COc1cc2ncnc(Nc3cccc(Cl)c3)c2cc1OC,92.2
COc1cc2c(cc1OC)-c1[nH]nc(Nc3cccc(F)c3)c1C2,92.5
CCN(CC)CCNC(=O)c1c(C)[nH]c(/C=C2\C(=O)Nc3ccc(F)cc32)c1C,96.1
C[C@@H]1CCN(C(=O)CC#N)C[C@@H]1N(C)c1ncnc2[nH]ccc12,106
O=C(NC(NC(=S)Nc1ccc(F)c([N+](=O)[O-])c1)C(Cl)(Cl)Cl)C(c1ccccc1)c1ccccc1 (centres unmarked),96.7
N#Cc1c(NC(=O)c2cccc3ccccc23)sc2c1CCCC2,111
CCOc1nc(NC(=O)Cc2cc(OC)ccc2OC)cc(N)c1C#N,114
O=c1cc(-c2cccc3c2Sc2ccccc2S3)oc(N2CCOCC2)c1,92.2
CCN(CC)C(=O)c1ccc(Nc2nc(OCC3CCCCC3)c3[nH]cnc3n2)cc1,80
O=C1C(Cl)=C(N2C(=O)CCC2=O)C(=O)c2ccccc21,114
Cn1nc2c3c(cccc31)C(=O)c1ccccc1-2,105
O=C(Nc1cccc(Nc2nccc(Nc3cccc(C(F)(F)F)c3)n2)c1)C1CC1,96.2
c1ccc(-c2[nH]ncc2-c2ccnc3ccccc23)nc1,89.2
CN([C@@H](Cc1ccc(OS(=O)(=O)c2cccc3cnccc23)cc1)C(=O)N1CCN(c2ccccc2)CC1)S(=O)(=O)c1cccc2cnccc12,99.5
COc1cc2ncnc(Nc3ccc(O)c(Br)c3)c2cc1OC,84.1
Cc1cn(-c2cc(NC(=O)c3ccc(C)c(Nc4nccc(-c5cccnc5)n4)c3)cc(C(F)(F)F)c2)cn1,109
CN(C)C[C@H]1CCn2c(c(C3=C(c4cn(C)c5ccccc45)C(=O)NC3=O)c3ccccc32)C1,90.7
Cc1cc2ncc(-c3ccccc3)nc2cc1C,99.3
